Measurements gathered from unrelated publications.
Every numbered part comes from another study and shows a few of its results, in no order. Positions count from the first letter of the parent shown.

Study 1
Target: CCND1, cyclin fold, Cln2 fusion (human)
Technique: yeast growth competition, sequencing
Matrix: yeast
Notes: weak parent motif
Baseline: not given
Reading: higher = stronger binding
Starting sequence: RB1 docking peptide (human); PKPLKKLRFDIEG
Change	normalised enrichment score
PKPLKKLRFDIPG [E12P]	-0.0141
CKPLKKLRFDIEG [P1C]	0.742
PKPLKKPRFDIEG [L7P]	-0.171
PKPLWKLRFDIEG [K5W]	0.378
PKPLKKHRFDIEG [L7H]	-0.112
PKPLKKLFFDIEG [R8F]	0.349
PKPLKKLRFDQEG [I11Q]	-0.0943
PKPLKKLRPDIEG [F9P]	-0.254
PKPAKKLRFDIEG [L4A]	0.0754
PKPLKKLRFDIEE [G13E]	-0.0158
PKPLKKLTFDIEG [R8T]	0.276
PKPLKKLIFDIEG [R8I]	0.341
PKPLKKLRFDIES [G13S]	-0.0364
PKPLKKLRFDITG [E12T]	0.11
PKPLFKLRFDIEG [K5F]	0.106
MKPLKKLRFDIEG [P1M]	-0.299
PKPLKKLRFDIRG [E12R]	-0.292

Study 2
Target: BATF, bZIP domain (human)
Technique: DHFR protein complementation
Matrix: yeast
Notes: single substitutions, most at no-binding floor
Baseline: wild-type JUN-FOS pair
Reading: higher = stronger binding
Starting sequence: JUN, bZIP domain (human); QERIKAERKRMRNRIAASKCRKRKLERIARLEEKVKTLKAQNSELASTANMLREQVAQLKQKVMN; partner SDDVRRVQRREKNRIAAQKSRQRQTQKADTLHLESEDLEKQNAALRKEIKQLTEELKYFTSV
Change	binding fitness
E44R	-0.0725 natural log
Q55G	-0.477 natural log
R30M	0.0358 natural log
K36I	-0.163 natural log
L45P	-1.18 natural log
A49V	-0.0456 natural log
V35T	-0.24 natural log
Q55E	-0.0747 natural log
E44T	-0.111 natural log
V35L	-0.0631 natural log
L52M	-0.19 natural log
A49P	-1.24 natural log
K36E	-0.057 natural log
A46Q	0.0583 natural log
L31W	-0.195 natural log
R30C	0.0016 natural log
V35F	-0.194 natural log

Study 3
Target: RING finger protein unkempt homolog, zinc fingers 1-6, GST-SBP tag (UNK, Homo sapiens, UniProt Q9C0B0, residues 30-357)
Technique: RNA Bind-n-Seq
Form: RNA
Matrix: in vitro
Tested at: not given
Notes: RNA with constant flanks, human and mouse sites, ends assumed
Baseline: input RNA pool
Reading: higher = stronger binding
Shared flanks, not repeated: GGGAGUUCUACAGUCCGACGAUC … CAACAGAGGAUUGAGCAUCA
Residues (chain): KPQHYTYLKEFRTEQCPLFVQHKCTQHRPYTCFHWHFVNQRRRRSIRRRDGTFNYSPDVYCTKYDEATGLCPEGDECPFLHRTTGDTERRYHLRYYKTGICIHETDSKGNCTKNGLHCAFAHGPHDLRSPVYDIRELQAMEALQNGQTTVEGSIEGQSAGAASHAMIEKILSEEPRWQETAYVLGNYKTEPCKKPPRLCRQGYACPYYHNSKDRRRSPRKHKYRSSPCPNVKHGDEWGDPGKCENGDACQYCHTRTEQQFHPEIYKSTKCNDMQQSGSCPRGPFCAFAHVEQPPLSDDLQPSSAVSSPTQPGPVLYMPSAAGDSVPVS
Sequence	bound/input enrichment
GGCACCCAAGUGGAUGAGGGGGUUCGCUCAGCCAGCAAGCGCAUCGUGGCGCCCCCAGGCGGCCGUUCUAAUAUCACAUCUCUGAGUUAAGCAAGCCUUCCUCAAAGAGAGGGGCAGAAG	0.178 ratio
AGACGUGCGCCACCACCGCCCACCUUAAAUUCUUACAGAUAAAAACUGUAUAUGUUUAUAAAUAGUUAUAAAGAACUAUUUUAUAUAAUAGCUAUUAUCAUUGUAGAAAUGACUUACAAA	0.595 ratio
UGUAAUCAGUGUGGAAGAGCCUUCAGCCAGAAGCAAUACCUCAUUAAACAUCAGAACAUCCAUACUGGAAAGAAGCCCUUUAAAUGUAGUGAGUGUGGAAAAGCUUUUAGCCAGAAGGAA	1.51 ratio
UGAUAAAGCCUUGACUAUGCAUGCUGCUUUCAUUUUGAUAAACUUUUUAUUUUUUAACUAUAGCUUUAUUAGCAAUUCCCAAAUGCUGCAAUUUGCUGAUUUCUUCACACAGACAGCUGG	5.65 ratio
AACAAGCUCGGUGUCACCAAUGCCAGCCUAGUCCUUUUCAGACCCGGGUCGGUGAGAGGAAUCAACGGAUCCGUCAGUCUGGCCGUACCACUGUGGCUGCUGGCAGCGUCCCUGUUCUGC	0.124 ratio
CCUGAUACUUUGGAUCCAGCACUGAUGAGGCCAGGGAGAUUGGAUAGAAAAAUUGAAUUUAGCUUGCCCGAUCUAGAGGGUCGGACCCACAUAUUUAAGAUUCACGCUCGUUCAAUGAGU	2.11 ratio
UCUCCAGAAUCAGAUACUGAACGAGAAAAGGAUAAAAAAGAAAAAGAUCGGGACAGUGAAAAAGACAGAAGUAGACAGAGAUCAGAAUCAAAACACAAAUCACCUAAGAAAAAGACUGGA	0.562 ratio
GCAUAAAUCCACCCCUGUUUGAAAUCUAUCAAGUCUUGUUAAGCCCAACACAACAUCAUGUAGCACUUAUAGGAAUAAAAGGACUUAUGGUAUUAGAAUUACCUAAAAGAUGGGGGAAGA	0.859 ratio
AUUGCUAUGGGAUUUCCUGCAGAAAGACUUGAAGGCGUAUACAGGAACAAUAUUGAUGAUGUAGUAAGGUUUUUGGAUUCAAAGCAUAAAAACCAUUACAAGAUAUACAAUCUUUGUGCU	0.498 ratio
CUUGAAUGGCUUAGGGCUCAACCAGACUGUUGAUCUCCUCAUGCAAGAGUCAGGAUGUCGUUUAGAACAUCCUUCUGCUACCAAAUUCCGAAAUCAUGUCAUGGAAGGAGACUGGGAUAA	0.0971 ratio
GGGAGAACUGCGCUGCAGGUUAUGAAACUUGGAAAUCCGGAGAUUGCCAGGAGGCUUCUCCUCAGAGGUGCUAAUCCCAAUUUGAAAGAUGGAACUGGUUUUGCUGUCAUUCAUGAUGCU	0.919 ratio

Study 4
Target: RNA binding protein fox-1 homolog 2, RRM domain, GST-SBP tag (RBFOX2, Homo sapiens, UniProt O43251-10, residues 100-194)
Technique: RNA Bind-n-Seq
Form: RNA
Matrix: in vitro
Tested at: 365 nM
Notes: natural RNA segment, single round, ends assumed
Baseline: no-protein control
Reading: higher = stronger binding
Shared flanks, not repeated: GGGAGUUCUACAGUCCGACGAUC … UGGAAUUCUCGGGUGCCAA
Construct (chain): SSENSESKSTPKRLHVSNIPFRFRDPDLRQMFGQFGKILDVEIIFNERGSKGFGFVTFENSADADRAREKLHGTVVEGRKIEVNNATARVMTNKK
Sequence	RBNS enrichment (R)
GGCAGGAGAAGAGAAUGGAUGUGUCUUCUCUCCCAUCUUCCCCUCAUCAUCGACCGAGGAGCACAAAGAAGUUCUGUUUCUGUUUUUUUCAGAAACUUUAUUUUAGCUGU	0.639
GAUCUCAUUAGUUUAUAGGCGUUGAUAAUAUCCCUAUGCAUAGAUUCUUUGUGUAUUGAUUACUAUAUAUAGACAUCUAAGAGGUUAAUUAUUGAUCAAGAAGACAGGUU	0.339
UCUGAGAUCCCCAAGGCCUUUCCUACAUGCCCCCUCCCUUCACAGGGGUACAGAAAUUAUCCCCCUACAACCCCAGCCUCCUGAGGGCUCCAUGCUGAAGGCUCCCAUUU	0.636
ACCUUUUGUCCUUUGGGGCUGGGCACCUCCAGACCCUCUGUGUGUCCCUGUCAUCUGGGGAUGGGGAGGAAUUCAGGCCUGUUCACUUCCCCAGUUCUGUAGCAGCCGAU	0.284
AACCCUUUGUAACCGGGGCCUUGCCCCCACCUCCUGUCUUUUCUCCUUGCCUUCCCCACUCCUGUGUCCUCCCAUCUAUCCUGUCUUUCCUUUCCUCCUCUCAGUGUCCU	2.02
CAUGUCUAGCCCAUCAUCCUGCUUGGAGCAAGUAGGCAGGAGCUCAAUAAAUGUUUGUUGCAUGAAGAAUGUCUGGAGAGCUGGAUGGGGCAUCAUGAAGAGGGUAGGGG	28.2
AAAAACUAUUAUUGAUGUAUUAAAAGAAAUUACGGUACCACGUUGAUUAGUCUGAAUGUUUGCAGGCAUUGGAAUAAAAUUUGACUUAUUUUUUCCCUCUUCCCCUGUCA	0.413
GUAUGGAGCAUUUUCACUUCUAAAUAGUUAGAUACAGAAAUUAAGUGCAUUGUAUCUUUUUCAUAAUGGUACUAUUUAGAAGCCCAGUUAGUCUUACUGAGCUUAUGCUU	1.11
CUGUAGGAGGUCCUCCAGCCCGGGUGCGUGGGUGCACAGGUGCGUGGGUGUGUGGAACGGGUCUGCUCUGCCUGCUUCUGUCUCUGUCUGGGUGUUUGAGUUCCAAAAAG	1.03
CUUGUCAAGUGAAUUCUUUGCAUGUUCAAAACGGAAACCAUUGAUUAGAACUACAUUCUUUACCCCUUGUUUUAAUUUGAACCCCACCAUAUGGAUUUUUUUCCUUAAGA	1.69
UGGCAAAAAGCAAUGCCAGUAAUUAAUAACAUUUGGAAAAGCUUUAUAGAGACUCUAAGUCUAAAUUUUAAUUUCUUUGUAAAAACCUCAAAAGUGAGGAAAAUGGAUGU	0.456
CAGGAACUGCAUGCCUGCCUCUACCUUUCCCCACCUGAUACACACAGCUCCUGCUGUGACUGAGGGACGGGGUGUAUCUGGCCUACCCUAGUUGUUGCAGAAUCCUUCCC	2.58

Repeated from above (study 2):
Change	binding fitness
A49V	-0.0456 natural log
V35T	-0.24 natural log
Q55E	-0.0747 natural log
E44T	-0.111 natural log
V35L	-0.0631 natural log
L52M	-0.19 natural log
A49P	-1.24 natural log
K36E	-0.057 natural log
A46Q	0.0583 natural log
L31W	-0.195 natural log
